Measurements of several laboratories.
± gives the spread as reported.

`N=C(N)NCCC[C@@H]1NC(=O)[C@@H](CCCNC(=N)N)NC(=O)[C@H](CCCNC(=N)N)NC(=O)[C@@H](C(c2ccccc2)c2ccccc2)NC(=O)[C@@H](C(c2ccccc2)c2ccccc2)NC(=O)[C@@H](C(c2ccccc2)c2ccccc2)NC(=O)[C@@H](CCCNC(=N)N)NC1=O` gave an MIC of 1 µg/mL (Blastomyces dermatitidis; BD-2).
For `Cc1c(CN(C)C(=O)/C=C/c2cnc3c(c2)CC(N)C(=O)N3)oc2ccccc12` (stereo not drawn), the MIC was 16 µg/mL (Klebsiella pneumoniae; microbial growth, broth dilution; BAA2473).
For `N=C(N)NCCC[C@@H]1NC(=O)[C@H](CCCNC(=N)N)NC(=O)[C@@H](CCCNC(=N)N)NC(=O)[C@@H](CCCNC(=N)N)NC(=O)[C@@H](C(c2ccccc2)c2ccccc2)NC(=O)[C@H](Cc2c[nH]c3ccccc23)NC(=O)[C@@H](C(c2ccccc2)c2ccccc2)NC1=O`, the MIC was 1 µg/mL (Blastomyces dermatitidis; BD-2).
The MIC of `COC1C=COC2(C)Oc3c(C)c(O)c4c(c3C2=O)C2=NC3(CCN(CC(C)C)CC3)NC2=C(NC(=O)C(C)=CC=CC(C)C(O)C(C)C(O)C(C)C(OC(=O)Nc2cccnn2)C1C)C4=O` (stereo not drawn) is reported as 0.48 µM (Mycobacteroides abscessus; microbial growth, agar dilution; ATCC19977).
The MIC of `C#CCO/N=C(\C(=O)N[C@@H]1C(=O)N(OS(=O)(=O)O)C1(C)C)c1nsc(N)n1` is reported as 16 µg/mL (Serratia marcescens; agar dilution; ATCC 21074, susceptible).
With `C[C@@H]1C(=O)O[C@@H](C)/C=C/C=C\[C@@H](C)[C@@H]2C=C[C@@H]3C[C@@]4(C)O[C@H]4[C@@H](C)[C@H]3[C@@H]2C(=O)C(Cl)(Cl)C1=O` the MIC was 0.025 µg/mL (Staphylococcus aureus; MSSA clinical isolate; PEN CLI ERY TET resistant).
The MIC of `CC1(C)[C@H](NC(=O)/C(=N\OCC(=O)N2CCC(C(=O)O)CC2)c2csc(N)n2)C(=O)N1OS(=O)(=O)O` is reported as 2 µg/mL (Serratia marcescens; agar dilution; ATCC 21074, susceptible).
`C=C(NC(=O)c1csc(-c2nc3c(cc2O)-c2nc(cs2)C(=O)NC(C(C)O)C(=O)NC(=C(C)OC)c2nc(cs2)C(=O)NC2c4nc(cs4)C(=O)NC(COC(=O)c4c5c6c(cccc6n4O)COC(=O)C(OC4CC(C)(O)C(N(C)C)C(C)O4)C2OC5)c2nc-3cs2)n1)C(N)=O` (stereo not drawn) gave an MIC of 0.0078 µg/mL (Staphylococcus aureus; microbial growth; MRSA).
`N=C(N)NCCC[C@@H]1NC(=O)[C@H](CCCNC(=N)N)NC(=O)[C@H](CCCNC(=N)N)NC(=O)[C@@H](CCCNC(=N)N)NC(=O)[C@H](Cc2ccc3ccccc3c2)NC(=O)[C@H](Cc2ccc3ccccc3c2)NC(=O)[C@H](Cc2ccc3ccccc3c2)NC1=O` gave an MIC of 2 µg/mL (Blastomyces dermatitidis; BD-1).
The MIC of `C#CCNC(=O)C(C)(C)O/N=C(\C(=O)N[C@@H]1C(=O)N(S(=O)(=O)O)[C@H]1C)c1csc(N)n1` is reported as 2 µg/mL (Serratia marcescens; agar dilution; ATCC 21074 susceptible).
With `O=CCNCCOn1c(=O)n(OCCNCCO)c(=O)n(OCCNCCOn2c(=O)n(OCCNCCO)c(=O)n(OCCNCCO)c2=O)c1=O` the MIC was 8 ± 2 µg/mL (Aspergillus fumigatus; broth microdilution).
The MIC of `CC1(C)[C@H](NC(=O)/C(=N\OC2(C(=O)O)CC2)c2nsc(N)n2)C(=O)N1OS(=O)(=O)O` is reported as 1 µg/mL (Serratia marcescens; agar dilution; ATCC 21074, susceptible).
The MIC of `CCCC(C)Oc1cccc(NC(=O)c2cccnc2)c1` (stereo not drawn) is reported as 128 µg/mL (Aspergillus fumigatus; microbial growth, broth dilution; MF5668).
`CC1(C)[C@H](NC(=O)/C(=N\OCc2c(Cl)cccc2Cl)c2csc(N)n2)C(=O)N1OS(=O)(=O)O` gave an MIC of 1 µg/mL (Serratia marcescens; agar dilution; ATCC 21074, susceptible).
`CC1C=CC=CC(C)C2C=CC3CC(C)(O)C(Cl)C(C)C3C2C(=O)C(Cl)(Cl)C(=O)C(C)C(=O)O1` (stereo not drawn) has an MIC of 0.025 µg/mL (Staphylococcus aureus; MSSA clinical isolate; resistant: PEN,CIP,CLI,DAP,ERY,MXF).

A few entries again:
With `C[C@@H]1C(=O)O[C@@H](C)/C=C/C=C\[C@@H](C)[C@@H]2C=C[C@@H]3C[C@@]4(C)O[C@H]4[C@@H](C)[C@H]3[C@@H]2C(=O)C(Cl)(Cl)C1=O` the MIC was 0.025 µg/mL (Staphylococcus aureus; MSSA clinical isolate; PEN CLI ERY TET resistant).
